Measured values collected from several papers.
± marks the error that the study gave. Values after ≈ are worked out from the molar mass of the structure shown.

The chains behind the UniProt entries cited, without tags or fusion partners. Residues count along the entry.
UniProt Q00961, whole entry, looked up: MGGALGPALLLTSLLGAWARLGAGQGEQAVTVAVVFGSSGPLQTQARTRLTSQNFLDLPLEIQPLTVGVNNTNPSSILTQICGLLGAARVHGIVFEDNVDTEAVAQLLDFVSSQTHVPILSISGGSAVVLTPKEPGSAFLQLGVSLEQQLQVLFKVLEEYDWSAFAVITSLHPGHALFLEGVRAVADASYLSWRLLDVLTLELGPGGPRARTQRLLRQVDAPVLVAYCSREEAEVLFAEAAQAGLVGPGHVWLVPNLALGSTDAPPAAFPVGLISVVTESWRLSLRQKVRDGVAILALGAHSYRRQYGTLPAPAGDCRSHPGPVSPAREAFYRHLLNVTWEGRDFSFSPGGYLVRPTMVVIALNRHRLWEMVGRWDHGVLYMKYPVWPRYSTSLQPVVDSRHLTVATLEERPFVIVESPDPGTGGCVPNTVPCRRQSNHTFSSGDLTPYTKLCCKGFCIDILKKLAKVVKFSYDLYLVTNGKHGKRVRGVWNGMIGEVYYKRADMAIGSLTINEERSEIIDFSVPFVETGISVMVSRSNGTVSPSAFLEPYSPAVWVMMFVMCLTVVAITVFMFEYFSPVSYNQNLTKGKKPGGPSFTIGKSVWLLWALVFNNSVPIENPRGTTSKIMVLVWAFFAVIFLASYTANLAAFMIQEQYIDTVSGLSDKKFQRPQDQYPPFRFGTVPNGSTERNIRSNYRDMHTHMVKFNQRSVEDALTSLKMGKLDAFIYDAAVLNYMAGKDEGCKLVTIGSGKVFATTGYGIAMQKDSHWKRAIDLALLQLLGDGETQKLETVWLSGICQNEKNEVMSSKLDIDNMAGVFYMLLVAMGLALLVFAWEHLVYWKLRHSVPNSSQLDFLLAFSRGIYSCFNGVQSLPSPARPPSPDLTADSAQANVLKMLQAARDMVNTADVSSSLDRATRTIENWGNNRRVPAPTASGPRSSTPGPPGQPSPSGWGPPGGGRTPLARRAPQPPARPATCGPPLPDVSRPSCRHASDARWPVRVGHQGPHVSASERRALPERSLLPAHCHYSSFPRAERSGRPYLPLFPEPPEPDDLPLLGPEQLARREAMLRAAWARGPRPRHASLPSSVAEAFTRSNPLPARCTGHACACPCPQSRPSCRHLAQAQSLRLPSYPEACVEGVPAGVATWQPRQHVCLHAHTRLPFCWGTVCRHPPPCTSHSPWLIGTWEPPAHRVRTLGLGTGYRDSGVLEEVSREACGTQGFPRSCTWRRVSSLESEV
UniProt P30530, whole entry, looked up: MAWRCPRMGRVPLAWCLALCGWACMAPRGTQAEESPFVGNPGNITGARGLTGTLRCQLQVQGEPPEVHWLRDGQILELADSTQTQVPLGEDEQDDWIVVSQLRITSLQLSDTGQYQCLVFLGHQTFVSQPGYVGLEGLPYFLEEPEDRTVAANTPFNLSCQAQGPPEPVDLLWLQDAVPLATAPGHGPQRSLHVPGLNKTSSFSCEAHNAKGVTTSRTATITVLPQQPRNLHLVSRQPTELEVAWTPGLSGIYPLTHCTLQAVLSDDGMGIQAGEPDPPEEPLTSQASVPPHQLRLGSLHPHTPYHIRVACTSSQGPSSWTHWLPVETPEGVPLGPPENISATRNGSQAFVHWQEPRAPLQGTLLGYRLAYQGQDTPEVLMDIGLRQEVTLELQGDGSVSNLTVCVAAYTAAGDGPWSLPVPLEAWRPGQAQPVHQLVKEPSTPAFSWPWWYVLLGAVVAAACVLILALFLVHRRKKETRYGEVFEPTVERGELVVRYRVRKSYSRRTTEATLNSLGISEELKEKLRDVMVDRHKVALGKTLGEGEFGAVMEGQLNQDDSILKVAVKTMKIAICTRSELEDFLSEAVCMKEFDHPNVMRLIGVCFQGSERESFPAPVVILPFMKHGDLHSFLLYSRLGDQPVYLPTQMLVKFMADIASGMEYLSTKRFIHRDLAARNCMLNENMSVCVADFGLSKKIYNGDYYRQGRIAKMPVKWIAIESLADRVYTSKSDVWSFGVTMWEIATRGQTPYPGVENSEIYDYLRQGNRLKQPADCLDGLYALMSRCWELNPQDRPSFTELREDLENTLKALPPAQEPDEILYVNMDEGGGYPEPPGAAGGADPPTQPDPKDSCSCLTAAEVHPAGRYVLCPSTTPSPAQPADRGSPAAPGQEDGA
UniProt P31645, whole entry: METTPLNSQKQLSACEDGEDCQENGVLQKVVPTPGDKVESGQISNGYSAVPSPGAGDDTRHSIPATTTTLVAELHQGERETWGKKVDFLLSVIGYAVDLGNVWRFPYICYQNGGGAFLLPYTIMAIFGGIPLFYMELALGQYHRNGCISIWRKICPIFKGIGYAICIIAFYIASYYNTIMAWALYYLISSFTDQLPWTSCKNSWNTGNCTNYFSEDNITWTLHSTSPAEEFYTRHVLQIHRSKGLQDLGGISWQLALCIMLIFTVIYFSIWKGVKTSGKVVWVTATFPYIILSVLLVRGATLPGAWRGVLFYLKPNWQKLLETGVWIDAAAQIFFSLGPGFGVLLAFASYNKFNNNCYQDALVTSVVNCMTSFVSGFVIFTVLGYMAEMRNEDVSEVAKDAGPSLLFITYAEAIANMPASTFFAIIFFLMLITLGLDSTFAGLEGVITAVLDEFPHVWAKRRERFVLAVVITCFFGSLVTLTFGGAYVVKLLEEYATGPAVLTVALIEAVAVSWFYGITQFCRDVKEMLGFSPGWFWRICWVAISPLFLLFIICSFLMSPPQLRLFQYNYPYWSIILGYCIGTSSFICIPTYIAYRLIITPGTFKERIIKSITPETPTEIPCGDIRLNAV
UniProt O43175, whole entry: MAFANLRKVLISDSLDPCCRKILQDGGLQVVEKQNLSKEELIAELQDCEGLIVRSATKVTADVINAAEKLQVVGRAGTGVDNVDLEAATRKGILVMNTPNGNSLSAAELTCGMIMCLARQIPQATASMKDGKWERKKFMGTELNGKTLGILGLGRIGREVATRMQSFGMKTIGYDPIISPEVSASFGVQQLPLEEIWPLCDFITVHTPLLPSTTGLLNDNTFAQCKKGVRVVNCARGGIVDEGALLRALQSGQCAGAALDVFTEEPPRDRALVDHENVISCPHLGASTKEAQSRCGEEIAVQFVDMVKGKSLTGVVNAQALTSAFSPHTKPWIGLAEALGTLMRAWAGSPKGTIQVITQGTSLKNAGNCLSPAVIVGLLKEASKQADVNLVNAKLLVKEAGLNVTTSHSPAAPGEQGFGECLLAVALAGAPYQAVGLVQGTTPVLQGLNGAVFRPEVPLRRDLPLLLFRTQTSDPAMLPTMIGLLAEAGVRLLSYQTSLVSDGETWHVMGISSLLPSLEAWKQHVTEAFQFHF
UniProt P53355, whole entry: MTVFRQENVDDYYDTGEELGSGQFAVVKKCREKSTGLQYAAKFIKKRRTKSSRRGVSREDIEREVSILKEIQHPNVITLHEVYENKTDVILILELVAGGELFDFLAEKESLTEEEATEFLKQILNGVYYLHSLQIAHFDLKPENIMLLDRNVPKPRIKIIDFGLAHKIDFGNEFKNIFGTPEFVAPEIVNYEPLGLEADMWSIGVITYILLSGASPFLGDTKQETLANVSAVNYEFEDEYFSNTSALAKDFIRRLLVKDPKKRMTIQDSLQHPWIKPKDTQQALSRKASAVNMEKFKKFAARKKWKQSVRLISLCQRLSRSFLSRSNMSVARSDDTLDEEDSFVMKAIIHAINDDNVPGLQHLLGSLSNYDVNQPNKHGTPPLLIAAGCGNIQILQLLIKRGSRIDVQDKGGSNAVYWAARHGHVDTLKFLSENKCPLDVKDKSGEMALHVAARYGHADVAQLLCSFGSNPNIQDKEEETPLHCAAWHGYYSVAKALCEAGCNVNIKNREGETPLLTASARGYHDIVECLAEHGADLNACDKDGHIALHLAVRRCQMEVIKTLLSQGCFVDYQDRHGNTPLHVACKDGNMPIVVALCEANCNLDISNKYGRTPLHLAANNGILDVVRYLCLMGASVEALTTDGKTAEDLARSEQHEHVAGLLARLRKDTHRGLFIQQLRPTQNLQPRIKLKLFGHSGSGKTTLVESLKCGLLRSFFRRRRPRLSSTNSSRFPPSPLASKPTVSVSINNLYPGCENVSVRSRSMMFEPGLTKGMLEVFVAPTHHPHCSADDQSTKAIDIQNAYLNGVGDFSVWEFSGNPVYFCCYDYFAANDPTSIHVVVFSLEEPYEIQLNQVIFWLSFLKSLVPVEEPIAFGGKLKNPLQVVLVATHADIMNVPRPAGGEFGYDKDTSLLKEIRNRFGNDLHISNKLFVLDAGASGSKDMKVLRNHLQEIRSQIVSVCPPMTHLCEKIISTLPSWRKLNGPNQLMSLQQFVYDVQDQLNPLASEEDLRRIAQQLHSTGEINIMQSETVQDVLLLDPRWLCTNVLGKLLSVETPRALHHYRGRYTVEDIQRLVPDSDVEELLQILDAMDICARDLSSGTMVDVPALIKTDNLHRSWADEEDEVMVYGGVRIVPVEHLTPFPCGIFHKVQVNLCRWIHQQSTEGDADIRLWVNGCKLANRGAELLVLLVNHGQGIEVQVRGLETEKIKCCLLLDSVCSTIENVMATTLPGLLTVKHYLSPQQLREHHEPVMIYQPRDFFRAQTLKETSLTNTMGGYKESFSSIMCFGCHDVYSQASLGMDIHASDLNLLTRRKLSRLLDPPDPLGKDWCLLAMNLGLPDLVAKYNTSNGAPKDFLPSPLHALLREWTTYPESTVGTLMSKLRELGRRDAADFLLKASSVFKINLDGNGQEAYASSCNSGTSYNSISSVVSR
UniProt P06276, whole entry, looked up: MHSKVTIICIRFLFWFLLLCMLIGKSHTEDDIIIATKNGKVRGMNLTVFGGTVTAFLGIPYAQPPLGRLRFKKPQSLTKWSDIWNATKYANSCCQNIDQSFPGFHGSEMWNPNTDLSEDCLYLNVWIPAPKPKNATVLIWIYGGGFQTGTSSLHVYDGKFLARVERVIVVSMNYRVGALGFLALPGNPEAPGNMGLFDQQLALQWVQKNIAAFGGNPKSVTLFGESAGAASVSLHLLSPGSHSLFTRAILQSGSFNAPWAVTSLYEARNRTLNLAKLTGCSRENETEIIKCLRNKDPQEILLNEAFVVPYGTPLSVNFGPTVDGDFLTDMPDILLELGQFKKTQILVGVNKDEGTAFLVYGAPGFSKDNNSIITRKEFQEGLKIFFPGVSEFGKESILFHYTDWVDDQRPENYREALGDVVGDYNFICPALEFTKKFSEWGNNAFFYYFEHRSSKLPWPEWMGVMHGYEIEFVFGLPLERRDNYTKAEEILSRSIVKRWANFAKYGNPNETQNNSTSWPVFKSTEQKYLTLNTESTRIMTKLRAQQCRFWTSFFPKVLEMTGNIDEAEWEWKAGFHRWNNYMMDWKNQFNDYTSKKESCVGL
UniProt P05091, 18-517 limits assumed: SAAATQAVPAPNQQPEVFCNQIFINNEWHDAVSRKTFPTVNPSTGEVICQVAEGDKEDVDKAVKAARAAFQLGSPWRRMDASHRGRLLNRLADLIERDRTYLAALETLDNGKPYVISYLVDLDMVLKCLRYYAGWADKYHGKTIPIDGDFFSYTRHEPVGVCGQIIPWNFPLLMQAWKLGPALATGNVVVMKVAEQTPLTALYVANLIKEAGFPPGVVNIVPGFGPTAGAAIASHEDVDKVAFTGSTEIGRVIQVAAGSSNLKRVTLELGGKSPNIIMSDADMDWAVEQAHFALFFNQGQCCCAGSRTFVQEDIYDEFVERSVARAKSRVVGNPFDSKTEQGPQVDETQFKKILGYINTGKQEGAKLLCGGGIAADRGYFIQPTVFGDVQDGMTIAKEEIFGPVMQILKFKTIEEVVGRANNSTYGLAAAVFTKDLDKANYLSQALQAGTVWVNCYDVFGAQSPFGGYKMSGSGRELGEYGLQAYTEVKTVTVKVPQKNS
UniProt P28072, whole entry, looked up: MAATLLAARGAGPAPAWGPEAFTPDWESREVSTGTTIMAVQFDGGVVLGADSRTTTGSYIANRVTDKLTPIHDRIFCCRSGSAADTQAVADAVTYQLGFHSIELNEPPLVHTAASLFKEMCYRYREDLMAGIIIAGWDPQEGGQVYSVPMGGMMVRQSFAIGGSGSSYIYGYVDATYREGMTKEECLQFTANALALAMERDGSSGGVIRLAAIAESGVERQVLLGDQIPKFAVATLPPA

For `COc1ccc(OC[C@H]2c3cccn3CC(=O)N2Cc2cccc(F)c2)cc1`, the charge transfer was 6.5 ± 2.5 fold (Glutamate receptor ionotropic, NMDA 2C, with GluN1 (Rattus norvegicus, UniProt Q00961); ion current, whole-cell patch clamp; HEK293T cells, transfected; 10 µM, together with: glutamate for 10 ms; relative to: baseline).
For `CC#C/C(=N\OC[C@H]1COCCN1)c1ccc2ncnc(Nc3ccc(OCc4cccc(F)c4)c(Cl)c3)c2c1`, the inhibition was 20.5% (AXL (Homo sapiens, UniProt P30530); kinase activity; 10 µM).
`CCCN1CCN(c2ccc3c(c2)C2CC3CCN2C(=O)OCc2ccccc2)CC1` (stereo not drawn) has a Ki of 8.63 µM (SLC6A4 (Homo sapiens, UniProt P31645); binding, radioligand binding).
`CCN(CC)C(=O)Oc1ccc(C(=O)Nc2cccc3cc[nH]c23)cc1` has a current response of 98.4 ± 2.5% (Glutamate receptor ionotropic, NMDA 2D (Rattus norvegicus, UniProt Q62645, M586A); inhibitor, two-electrode voltage clamp; Xenopus oocytes; 10 µM; relative to: untreated).
`O=C(N/N=C/c1cc([N+](=O)[O-])ccc1O)c1ccc(O)cc1O` has a maximum inhibition of 67% (PHGDH (Homo sapiens, UniProt O43175); enzyme activity, inhibitor, PSAT1-coupled).
`O=C(Nc1ccccc1)c1cc([N+](=O)[O-])ccc1Cl` gave a revertants of 1560 ± 50 revertants/plate (Salmonella typhimurium; Ames plate incorporation; TA100; 150 µg/plate, without metabolic activation).
For `CCN1CCN(Cc2ccc(NC(=O)c3ccc(C)c(/C=C/c4cnc5[nH]ccc5c4OC)c3)cc2C(F)(F)F)CC1`, “log2 fold change” read -0.034 (DAPK1 (Homo sapiens, UniProt P53355); inhibitor, cell-based kinome screen; human cells; 5 µM; relative to: vehicle).
The efficacy of `O=C(NOCC1CC1)c1cc(Br)c(F)c(F)c1Nc1ccc(I)cc1Cl` is reported as -72.6 ± 13.3% (Cholinesterase (BCHE, Homo sapiens, UniProt P06276); enzyme activity).
`CSc1nc(Cl)cc(Sc2nnc(-c3cc(C(F)(F)F)cc(C(F)(F)F)c3)[nH]2)n1` has an MIC of 2.6 µg/mL (≈ 5.51 µM) (Escherichia coli; MC4100; 37 °C, together with: PMBN 25 µg/mL).
For `COc1ccc(C(=O)CSC#N)cc1OC`, the inhibition was no less than 50% (ALDH2 (Homo sapiens, UniProt P05091); enzyme activity, inhibitor; 20 µM).
For `C[C@H](Cc1ccc(O)c(O)c1)[C@@H](C)Cc1ccc(O)c(O)c1`, “amount in epidermis” read 19.3 ± 2.86 µg (human skin; 3% solution, 8 h, skin UV-treated 20 min).
The kobs/[I] of `O=c1oc(-c2cccc(C(F)(F)F)c2)ns1` is reported as 0.15 M⁻¹ s⁻¹ (PSMB6 (Homo sapiens, UniProt P28072); inactivation; human PA28-activated proteasome).

Excerpt of the above:
For `COc1ccc(OC[C@H]2c3cccn3CC(=O)N2Cc2cccc(F)c2)cc1`, the charge transfer was 6.5 ± 2.5 fold (Glutamate receptor ionotropic, NMDA 2C, with GluN1 (Rattus norvegicus, UniProt Q00961); ion current, whole-cell patch clamp; HEK293T cells, transfected; 10 µM, together with: glutamate for 10 ms; relative to: baseline).
For `CC#C/C(=N\OC[C@H]1COCCN1)c1ccc2ncnc(Nc3ccc(OCc4cccc(F)c4)c(Cl)c3)c2c1`, the inhibition was 20.5% (AXL (Homo sapiens, UniProt P30530); kinase activity; 10 µM).
